Assay results collected from several papers.
A part holds a random share of what one study measured.
Chain of UniProt Q99558 (whole entry, looked up): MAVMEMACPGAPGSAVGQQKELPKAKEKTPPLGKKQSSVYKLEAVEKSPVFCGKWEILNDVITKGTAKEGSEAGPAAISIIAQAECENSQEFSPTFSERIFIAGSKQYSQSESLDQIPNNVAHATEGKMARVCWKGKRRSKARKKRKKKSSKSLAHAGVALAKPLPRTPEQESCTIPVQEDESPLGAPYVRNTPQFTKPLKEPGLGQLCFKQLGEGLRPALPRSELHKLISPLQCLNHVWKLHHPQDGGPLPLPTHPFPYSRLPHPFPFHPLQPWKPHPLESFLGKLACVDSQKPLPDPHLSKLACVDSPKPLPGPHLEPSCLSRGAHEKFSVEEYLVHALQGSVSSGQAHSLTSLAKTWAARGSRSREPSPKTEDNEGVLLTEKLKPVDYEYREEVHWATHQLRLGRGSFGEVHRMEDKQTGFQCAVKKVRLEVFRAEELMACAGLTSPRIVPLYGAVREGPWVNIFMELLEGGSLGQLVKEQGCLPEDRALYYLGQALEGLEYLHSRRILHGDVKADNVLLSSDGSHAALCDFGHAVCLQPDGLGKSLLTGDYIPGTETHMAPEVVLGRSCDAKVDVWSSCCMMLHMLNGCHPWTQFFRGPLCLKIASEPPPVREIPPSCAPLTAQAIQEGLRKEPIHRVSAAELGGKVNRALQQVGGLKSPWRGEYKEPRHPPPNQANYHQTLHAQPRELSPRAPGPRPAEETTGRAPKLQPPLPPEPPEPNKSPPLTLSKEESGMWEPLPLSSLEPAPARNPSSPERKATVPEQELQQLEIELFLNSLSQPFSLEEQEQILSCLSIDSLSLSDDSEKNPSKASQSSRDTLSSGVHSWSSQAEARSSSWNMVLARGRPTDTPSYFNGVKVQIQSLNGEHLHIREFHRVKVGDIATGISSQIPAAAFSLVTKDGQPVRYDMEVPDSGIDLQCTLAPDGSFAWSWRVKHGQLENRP
Chain of UniProt O43353 (whole entry, looked up): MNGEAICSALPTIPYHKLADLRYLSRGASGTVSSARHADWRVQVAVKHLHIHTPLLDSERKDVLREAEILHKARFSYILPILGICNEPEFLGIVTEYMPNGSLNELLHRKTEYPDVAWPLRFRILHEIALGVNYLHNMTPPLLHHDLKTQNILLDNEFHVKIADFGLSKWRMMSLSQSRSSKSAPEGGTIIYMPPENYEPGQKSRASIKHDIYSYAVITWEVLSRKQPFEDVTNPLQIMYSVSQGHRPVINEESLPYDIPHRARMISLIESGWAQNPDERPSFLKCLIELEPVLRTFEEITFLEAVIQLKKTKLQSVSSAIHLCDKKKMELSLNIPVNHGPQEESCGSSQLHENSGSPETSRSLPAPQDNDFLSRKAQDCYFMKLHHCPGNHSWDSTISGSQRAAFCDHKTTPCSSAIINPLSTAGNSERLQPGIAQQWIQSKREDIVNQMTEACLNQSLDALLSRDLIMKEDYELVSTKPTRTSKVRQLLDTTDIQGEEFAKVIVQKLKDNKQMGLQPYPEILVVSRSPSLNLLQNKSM

Sample 1 — technique: RNA Bind-n-Seq; molecule type: RNA; matrix: in vitro; tested at: 200 nM; setting: whole 134-nt RNA, ends assumed; added: 150 mM LiCl; reference: input library; direction: higher = stronger binding; each molecule: 7-deaza-guanosine replaces G
Target: Fragile X messenger ribonucleoprotein 1, C-terminal low-complexity region (Fmr1, Mus musculus, UniProt P35922)
All sequences stand within: GGGAGUUCUACAGUCCGACGAUC … UGGAAUUCUCGGGUGUCAAGG
Strand | log2 enrichment
AGUCCUGUGCUACACAUCGUAUGUACCGAAUCGGUUUUUGGUUUUUGGUUUUUUUGGAAAGUAUUAUGUUACGCCGUUCGGAUCUGCACU | -2.18
UAUGAGGAUGAGUUGGUGCCCCUUUUUGAGAAGGCCGGACCCAUUUGGGAUCUACGUCUUAUGAUGGAUCCACUGUCCGGUCAGAAUAGA | 0.966
CAAGUCCUGUGCUACACAUCGUAUGUACCGAAUCGGGCCCGGGGCCCGGGGCCCGGAAAGUAUUAUGUUACGCCGUUCGGAUCUGCACUU | -2.42
GCAGGAAGUAAAAACAAAUGGAAAUGCUUCGGAUAGUGGCAGGGGUGGGGGUUGCUAAGGAAAGGGCGGGAUGGGAGUGGGUAAAGAGUU | 1.36
UCCUGUGCUACACAUCGUAUGUACCGAAUCGGGGAAAAAAGGGGAAAAAAGGAAAAAAGGAAAGUAUUAUGUUACGCCGUUCGGAUCUGC | -0.291
AAGUCCUGUGCUACACAUCGUAUGUACCGAAUCGGAAAAAGGUUUUUGGAAAAAGGAAAGUAUUAUGUUACGCCGUUCGGAUCUGCACUU | -2.21
CCUCAAGUCCUGUGCUACACAUCGUAUGUACCGAAUCGGAGGAGGUUUUUGGAAAGUAUUAUGUUACGCCGUUCGGAUCUGCACUUCCAG | -0.408
UGUCUCGAGCAGGGGACAAGACGUUCGAGGAGUACCUGGAUGAGUAUUACCGGCUGGACUACGAGGACAUCAUCGACGACCUGCCCUGUC | -0.485

Sample 2 — technique: RNAcompete; molecule type: RNA; matrix: in vitro; tested at: 20 nM; setting: 7-mer, probes averaged, single round; reference: mean of 7-mers; direction: higher = stronger binding
Target: PABPC1L2, full length, GST fusion (mouse, UniProt A0ABA7IW68)
Target sequence (chain): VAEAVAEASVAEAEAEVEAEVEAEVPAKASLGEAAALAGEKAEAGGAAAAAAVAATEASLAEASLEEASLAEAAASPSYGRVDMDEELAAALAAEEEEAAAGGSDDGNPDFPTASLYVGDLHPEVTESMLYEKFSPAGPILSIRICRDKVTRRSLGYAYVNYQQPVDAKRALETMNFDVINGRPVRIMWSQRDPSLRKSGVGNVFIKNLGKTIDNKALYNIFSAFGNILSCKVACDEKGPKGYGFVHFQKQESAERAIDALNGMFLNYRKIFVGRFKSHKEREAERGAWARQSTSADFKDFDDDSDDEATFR
Strand | 7-mer Z-score
GUGAGCA | -0.211
CUGGUAA | 0.0243
AAGGGUU | 0.169
CCAUGGA | -0.0264
AUCGACA | 0.0116
AUUGAAG | -0.00289
UGAGUAA | 0.046
GUGGUUA | -0.113

Further values, each from its own experiment
SMILES | target | test | conditions | scale | measurement | result
CS(=O)(=O)CCNCc1ccc(-c2ccc3ncnc(Nc4ccc(OCc5cccc(F)c5)c(Cl)c4)c3c2)o1 | Receptor-interacting serine/threonine-protein kinase 2 (RIPK2, Homo sapiens, UniProt O43353) | enzyme activity, inhibitor | 0.5 µM | reference: control | remaining activity | 110%
COc1cc(-c2cn(C3CCc4c(F)cccc4N(CC(F)(F)F)C3=O)nn2)ccc1-n1cnc(C)c1 (stereo not drawn) | Mitogen-activated protein kinase kinase kinase 14 (MAP3K14, Homo sapiens, UniProt Q99558) | cell-free assay, competition with immobilised ligand | 1 µM | – | remaining binding | 86%

Some of these lines once more (sample 2):
Strand | 7-mer Z-score
UGAGUAA | 0.046
